# Experimental data of several laboratories.
# Each line is one published result; not all experiments were run side by side. ± gives the spread as reported.
# BCHE: Cholinesterase (BCHE, Equus caballus, UniProt P81908)
# UniProt P81908, sequence (whole entry, looked up): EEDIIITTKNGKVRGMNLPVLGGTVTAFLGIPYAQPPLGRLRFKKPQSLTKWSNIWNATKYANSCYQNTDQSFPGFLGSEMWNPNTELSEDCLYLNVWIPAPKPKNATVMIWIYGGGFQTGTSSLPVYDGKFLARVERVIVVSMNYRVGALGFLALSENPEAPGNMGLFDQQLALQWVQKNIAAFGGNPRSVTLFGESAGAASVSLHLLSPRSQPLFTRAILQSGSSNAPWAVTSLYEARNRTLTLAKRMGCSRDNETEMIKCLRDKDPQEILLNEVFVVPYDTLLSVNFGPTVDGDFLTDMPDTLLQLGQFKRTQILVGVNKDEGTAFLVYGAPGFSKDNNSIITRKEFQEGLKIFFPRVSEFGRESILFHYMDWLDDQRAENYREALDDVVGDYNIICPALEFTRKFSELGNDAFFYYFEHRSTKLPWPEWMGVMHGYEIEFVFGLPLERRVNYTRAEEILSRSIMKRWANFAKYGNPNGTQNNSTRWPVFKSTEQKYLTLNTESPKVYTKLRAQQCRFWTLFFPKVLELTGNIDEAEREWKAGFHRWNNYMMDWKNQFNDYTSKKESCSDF
# UniProt P06493, sequence (whole entry, looked up): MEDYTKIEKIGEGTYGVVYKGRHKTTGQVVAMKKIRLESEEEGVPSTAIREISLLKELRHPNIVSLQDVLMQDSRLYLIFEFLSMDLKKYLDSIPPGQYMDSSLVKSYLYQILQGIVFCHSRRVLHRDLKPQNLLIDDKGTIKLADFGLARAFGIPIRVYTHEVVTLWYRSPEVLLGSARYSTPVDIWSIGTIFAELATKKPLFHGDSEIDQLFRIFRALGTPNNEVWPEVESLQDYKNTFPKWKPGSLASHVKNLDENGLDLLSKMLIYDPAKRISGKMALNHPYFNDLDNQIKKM
# UniProt Q9UGN5, sequence (whole entry, looked up): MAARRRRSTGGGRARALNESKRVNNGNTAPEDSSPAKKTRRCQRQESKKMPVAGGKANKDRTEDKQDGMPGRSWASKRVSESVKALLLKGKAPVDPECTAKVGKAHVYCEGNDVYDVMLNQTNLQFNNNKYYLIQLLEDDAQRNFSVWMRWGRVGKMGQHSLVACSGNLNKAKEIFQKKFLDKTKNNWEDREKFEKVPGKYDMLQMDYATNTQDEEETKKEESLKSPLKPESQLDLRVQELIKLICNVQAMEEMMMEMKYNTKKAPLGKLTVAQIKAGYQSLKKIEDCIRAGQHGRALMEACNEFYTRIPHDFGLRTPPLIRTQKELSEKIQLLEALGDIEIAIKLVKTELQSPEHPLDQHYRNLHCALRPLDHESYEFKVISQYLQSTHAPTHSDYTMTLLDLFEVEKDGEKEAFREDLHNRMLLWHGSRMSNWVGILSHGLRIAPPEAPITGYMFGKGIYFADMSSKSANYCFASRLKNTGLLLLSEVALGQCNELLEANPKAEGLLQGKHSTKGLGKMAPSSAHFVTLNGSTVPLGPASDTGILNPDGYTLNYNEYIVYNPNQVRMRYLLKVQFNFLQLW
# UniProt P43250, sequence (whole entry, looked up): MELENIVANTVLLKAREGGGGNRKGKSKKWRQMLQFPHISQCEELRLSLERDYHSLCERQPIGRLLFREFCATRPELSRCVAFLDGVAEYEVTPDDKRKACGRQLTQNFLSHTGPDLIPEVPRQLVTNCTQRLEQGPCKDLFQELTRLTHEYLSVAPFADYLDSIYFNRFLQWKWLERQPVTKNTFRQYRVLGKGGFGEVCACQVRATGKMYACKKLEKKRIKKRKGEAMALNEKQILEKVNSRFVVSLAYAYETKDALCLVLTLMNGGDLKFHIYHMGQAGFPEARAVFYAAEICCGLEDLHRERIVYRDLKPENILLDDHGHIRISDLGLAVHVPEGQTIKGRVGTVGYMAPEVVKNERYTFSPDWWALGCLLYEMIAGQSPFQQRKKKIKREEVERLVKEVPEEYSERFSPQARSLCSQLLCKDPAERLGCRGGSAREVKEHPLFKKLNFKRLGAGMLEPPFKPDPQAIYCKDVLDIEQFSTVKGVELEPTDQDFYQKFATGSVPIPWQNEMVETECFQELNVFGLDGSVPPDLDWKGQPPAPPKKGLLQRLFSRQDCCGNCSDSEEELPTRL
# UniProt O75716, sequence (whole entry, looked up): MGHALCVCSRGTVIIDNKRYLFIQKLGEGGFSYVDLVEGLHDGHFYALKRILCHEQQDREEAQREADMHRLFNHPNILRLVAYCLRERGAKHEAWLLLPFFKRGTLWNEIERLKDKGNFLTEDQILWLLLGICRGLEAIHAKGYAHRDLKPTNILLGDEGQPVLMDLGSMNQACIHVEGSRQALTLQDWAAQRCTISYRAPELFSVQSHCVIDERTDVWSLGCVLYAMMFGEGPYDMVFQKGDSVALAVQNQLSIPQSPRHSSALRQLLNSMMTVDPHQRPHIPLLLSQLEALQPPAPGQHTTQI
# UniProt P51813, sequence (whole entry, looked up): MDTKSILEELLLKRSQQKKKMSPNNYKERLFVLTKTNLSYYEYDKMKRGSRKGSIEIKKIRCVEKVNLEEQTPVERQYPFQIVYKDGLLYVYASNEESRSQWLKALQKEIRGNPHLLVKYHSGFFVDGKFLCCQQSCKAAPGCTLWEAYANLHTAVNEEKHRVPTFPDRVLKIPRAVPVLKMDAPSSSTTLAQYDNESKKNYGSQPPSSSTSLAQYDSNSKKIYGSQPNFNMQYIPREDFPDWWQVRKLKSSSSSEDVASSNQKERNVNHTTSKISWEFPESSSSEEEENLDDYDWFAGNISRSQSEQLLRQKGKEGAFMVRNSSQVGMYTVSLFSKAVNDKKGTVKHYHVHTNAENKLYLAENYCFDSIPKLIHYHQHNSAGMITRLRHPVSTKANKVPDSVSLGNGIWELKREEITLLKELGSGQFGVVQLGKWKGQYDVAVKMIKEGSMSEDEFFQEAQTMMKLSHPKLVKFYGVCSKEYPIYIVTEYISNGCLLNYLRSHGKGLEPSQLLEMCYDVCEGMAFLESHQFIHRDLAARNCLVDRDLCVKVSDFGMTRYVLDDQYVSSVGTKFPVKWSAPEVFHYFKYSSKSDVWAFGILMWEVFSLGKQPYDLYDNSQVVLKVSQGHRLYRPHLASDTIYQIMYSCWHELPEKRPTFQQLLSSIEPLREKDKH
# UniProt P21917, sequence (whole entry, unmodified, looked up): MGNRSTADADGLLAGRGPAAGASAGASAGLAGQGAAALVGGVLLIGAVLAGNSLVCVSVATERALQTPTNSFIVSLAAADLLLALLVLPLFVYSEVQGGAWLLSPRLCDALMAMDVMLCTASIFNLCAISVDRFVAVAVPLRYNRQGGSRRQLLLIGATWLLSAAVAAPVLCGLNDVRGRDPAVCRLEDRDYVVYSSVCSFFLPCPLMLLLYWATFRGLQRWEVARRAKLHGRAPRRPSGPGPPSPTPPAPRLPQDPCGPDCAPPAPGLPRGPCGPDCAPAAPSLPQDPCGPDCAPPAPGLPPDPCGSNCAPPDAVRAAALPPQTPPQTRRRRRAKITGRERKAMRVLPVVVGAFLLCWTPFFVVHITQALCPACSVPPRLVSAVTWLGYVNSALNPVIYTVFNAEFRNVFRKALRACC
# UniProt Q5XJY4, sequence (whole entry, looked up): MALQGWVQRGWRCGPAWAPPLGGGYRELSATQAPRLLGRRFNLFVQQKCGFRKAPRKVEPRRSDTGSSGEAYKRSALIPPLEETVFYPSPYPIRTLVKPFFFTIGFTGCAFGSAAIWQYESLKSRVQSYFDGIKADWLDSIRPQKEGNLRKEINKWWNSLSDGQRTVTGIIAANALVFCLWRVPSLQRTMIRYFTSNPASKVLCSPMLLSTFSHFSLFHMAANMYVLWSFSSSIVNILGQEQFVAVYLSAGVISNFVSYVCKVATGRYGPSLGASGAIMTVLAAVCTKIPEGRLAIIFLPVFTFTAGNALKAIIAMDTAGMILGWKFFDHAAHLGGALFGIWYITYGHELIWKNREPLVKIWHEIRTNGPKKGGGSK
SMILES,target or system,test,system,conditions,scale,quantity,value
COc1ccc(F)cc1S(=O)(=O)Nc1cnc2c(c1)C(=O)NCCO2,adenosine transporter,radioligand binding,,10 µM,,inhibition,-19%
CC(C)(C)C(=O)OCOP(=O)(OCOC(=O)C(C)(C)C)C1CCCN(O)C1=O (stereo not drawn),SNB-19,,,,,CC50,> 100 µM
Cc1nc2cccc(OCC(C)(C)C(=O)NC(C)C)c2c(N)c1C(=O)[O-].[Na+],Escherichia coli,"reverse mutation, preincubation",WP2 uvrA,"5.0 mg/plate, with rat liver S9",,revertant colonies,33 ± 2 colonies/plate
CN(/N=C/c1ccccc1C(=O)O)c1nc(-c2ccccc2Cl)cs1,"Cyclin-dependent kinase 1, with cyclin E1 (CDK1, Homo sapiens, UniProt P06493)","enzyme activity, inhibitor",,1 µM,,inhibition,-13.9%
C[C@H](NCc1ccc(-c2ccc(C(F)(F)F)cc2)cc1)C(N)=O,"GABAA receptor chloride channel, rat","binding, radioligand binding",biochemical,"1 µM, together with: [3H]TBOB 3.0 nM",,inhibition,0%
O=C1NC2(CC2)COc2ncc(F)cc2[C@H]2COCCN2c2ccn3ncc1c3n2,,,"Sprague-Dawley rat, female, spleen","oral, 20 mg/kg/day, 4 weeks, end of treatment",,organ-to-brain weight ratio,58.9 ± 19.3%
CS(=O)(=O)Nc1cccc(-c2csc3cnc(Nc4ccc(N5CCN(CCCCCOc6cccc7c6C(=O)N(C6CCC(=O)NC6=O)C7=O)CC5)cc4)nc23)c1 (stereo not drawn),"TLK1 (Homo sapiens, UniProt Q9UKI8)","probe labelling, inhibitor, KiNativ chemoproteomics",MOLT-4,1 µM,,inhibition,25.2%
c1ccc(CN2CCNCC2)cc1,BCHE,"enzyme activity, inhibitor, Ellman",,20 µM,,inhibition,40.9%
CC(=O)NC[C@@H]1[C@@H](O)C[C@H]2[C@H](O)C[C@@H](CO)N12,Spodoptera litura β-N-acetylglucosaminidase,,crude enzyme,"0.107 µM, run 2, together with: p-nitrophenyl GlcNAc",,inhibition,18.3%
NCCCO.O=C(O)C(Cl)Cl,Chenopodium album,herbicidal activity,,"15 mg/mL, 21 days, pre-emergence greenhouse",,inhibition,0%
CC(C)CC(C(=O)N1CC2(CC1C#N)C(=O)Nc1ccccc12)N(C)C(=O)c1cc2c(F)cc(F)c(F)c2[nH]1 (stereo not drawn),Human coronavirus 229E,cytopathic effect,MRC5,11.94 nM,,inhibition,99.7%
O=C(CN1CN(c2ccccc2)C2(CCN(C(=O)c3cnc4[nH]ncc4c3)CC2)C1=O)NCC(F)(F)F,"EGFR (Homo sapiens, UniProt P00533)",inhibitor,,concentration not given,,inhibition,< 50%
Cc1cc(-c2ccc3ccccc3c2)nnc1NCCN1CCN(C)CC1,"PDE3A (Homo sapiens, UniProt Q14432)",enzyme activity,,concentration not given,,inhibition,negative
OC[C@H]1O[C@@H](Oc2cccc(-c3ccccc3)c2)[C@H](O)[C@@H](O)[C@H]1O,"Adhesin FmlH, lectin domain (Escherichia coli, UniProt Q1RBS0)","binding to desialylated mucin, ELISA competition",UPEC UTI89,"10 µM, together with: desialylated bovine submaxillary mucin",,inhibition,7.8 ± 5.5%
CC(C)CC(O)(CC(C)C)c1cn(C(=O)N2CCCC2)nn1,"Presenilin-associated rhomboid-like protein, mitochondrial (Parl, Mus musculus, UniProt Q5XJY4)","enzyme activity, inhibitor, competitive ABPP-SILAC, refers to: Parl",mouse T-cells,"concentration not given, 4 h, treated in situ",reference: DMSO,activity ratio,1.29
CCCCCCCCCCCCCCCCCC(=O)NC[C@H]1CC[C@H](C(=O)N[C@@H](CCC(=O)NCCCOCCOCCOCCCNC(=O)COCC(=O)N[C@@H](Cc2ccc(O)cc2)C(=O)NC(C)(Cc2ccccc2)C(=O)N[C@@H](CC(C)C)C(=O)N[C@@H](CCCC)C(=O)N[C@@H](CCCNC(=N)N)C(=O)N2CCC[C@H]2C(=O)N[C@@H](CCCNC(=N)NC)C(=O)N[C@@H](CC(N)=O)C(N)=O)C(=O)O)CC1 (stereo partly drawn),"AVPR1B (Homo sapiens, UniProt P47901)","antagonist, DiscoverX GPCR panel",,1 µM,,inhibition,56%
CN[C@@H]1[C@H](O)[C@H](NC)[C@H]2O[C@]3(O)[C@H](O[C@@H]2[C@H]1O)O[C@H](C)C[C@H]3NC(=O)Cc1ccc(Cl)cn1,"BDKRB1 (Homo sapiens, UniProt P46663)","ligand displacement, radioligand",,10 µM,,inhibition,0%
CC(C)[C@H]1NC(=O)C[C@H]2/C=C/CCSSC[C@@H](NC1=O)C(=O)N[C@H](Cc1cccc3ccccc13)C(=O)NCC(=O)O2,"BMX (Homo sapiens, UniProt P51813)","enzyme activity, inhibitor",,10 µM,,inhibition,1%
O=C1NC(=O)c2c1c1cc(F)c[n+]3c1c1c2c2cc(O)ccc2[n]1[Ru-4]312([N]=C=S)[S+]3CC[S+]1CC[S+]2CC3 (stereo not drawn),"Abl1 (Mus musculus, UniProt P00520)",enzyme activity,,"100 nM, mouse enzyme, together with: 10 µM ATP",reference: untreated,remaining activity,96%
Cc1cc(C)cc(-n2cc(CCS(=O)(=O)F)nn2)c1,BCHE,"enzyme activity, inhibitor, Ellman's method",horse serum BuChE,20 µM,,inhibition,32.4 ± 1.4%
CN[C@@H]1[C@H](O)[C@H](NC)[C@H]2O[C@]3(O)[C@H](O[C@@H]2[C@H]1O)O[C@H](C)C[C@H]3NC(=O)Cc1cc(Cl)ccn1,"DRD4 (Homo sapiens, UniProt P21917, del265-296)","ligand displacement, radioligand",,10 µM,,inhibition,3%
Cc1ccc2c(n1)c(-c1cccc(S(C)(=O)=O)c1)c(C)n2C/C(F)=C/CN,"ADRA2B (Homo sapiens, UniProt P18089)",off-target safety screen,,10 µM,,inhibition,25%
COc1ccccc1-c1n[nH]c2nc(NC3CCN(C(=O)Cc4ccc(F)cc4F)CC3)ncc12,,"bead binding, competition bead pull-down, refers to: LINJ.33.0950",Leishmania donovani axenic amastigote extract,10 µM,reference: vehicle,relative abundance,0.72
N[C@H](C(=O)N1CCCC1)C1CCN(c2nccc3c(-c4ncc(Cl)cc4Cl)cccc23)CC1,L-type calcium channel dihydropyridine site,"binding, radioligand binding",,10 µM,,inhibition,4%
O=C(O)c1ccccc1/C=N/Nc1nc(-c2ccccc2Cl)cs1,"Cyclin-dependent kinase 6, with cyclin D3 (CDK6, Homo sapiens, UniProt Q00534)","enzyme activity, inhibitor",,1 µM,,inhibition,-0.9%
CC(=O)NCCCC[C@@H]1NC(=O)[C@H](Cc2c[nH]c3c(C)cccc23)NC(=O)[C@H]([C@@H](C)O)NC(=O)[C@H](CC(N)=O)NC(=O)[C@@H](NC(C)=O)C(C)(C)SSC(C)(C)[C@@H](C(=O)N[C@@H](Cc2ccc(OCCN)cc2)C(=O)N[C@@H](Cc2ccc3ccccc3c2)C(=O)NC2(C(=O)N[C@@H](CCC(=O)O)C(=O)N[C@@H](CC(N)=O)C(=O)N[C@@H](Cc3cccnc3)C(=O)N(C)CC(N)=O)CCOCC2)NC1=O,"SLCO1B1 (Homo sapiens, UniProt Q9Y6L6)",substrate,HEK293 expressing SLCO1B1,"5 µM, 30 min",,uptake rate,0.095 ± 0.0041 pmol/mg/min
Cc1cc(OCC(=O)NCCNC(=O)c2cccc(COc3ccccc3C(N)=O)c2)c2c3c(c(=O)oc2c1)CCC3,"PARP2 (Homo sapiens, UniProt Q9UGN5)","enzyme activity, inhibitor",,0.5 µM,,inhibition,99%
CN(C)[C@H]1C[C@@]23CC[C@@]4(O2)C(=CC[C@]2(C)[C@@H](c5ccc6ccncc6c5)CC[C@H]24)C=C3[C@@H](O)[C@@H]1O,"STK16 (Homo sapiens, UniProt O75716)","ATP probe labelling, inhibitor, KiNativ profiling",,1 µM,,inhibition,3.2%
CS(C)(=O)=Nc1ccc(-c2ccc(-c3nc4cc(O[C@@H]5CO[C@H]6[C@@H]5OC[C@H]6O)[nH]c4cc3F)cc2)cc1,"GRK6 (Homo sapiens, UniProt P43250)","enzyme activity, inhibitor",,10 µM,,inhibition,0%
CC[C@H](C)[C@H](NC(=O)[C@H](CCCCN)NC(=O)CNC(=O)[C@H](CC(C)C)NC(=O)[C@H](Cc1ccccc1)NC(=O)[C@H](CCCCN)NC(=O)[C@H](CO)NC(=O)[C@H](Cc1ccccc1)NC(=O)[C@H](Cc1c[nH]c2ccccc12)NC(=O)[C@H](CCC(N)=O)NC(=O)[C@@H](NC(=O)[C@H](Cc1ccccc1)NC(=O)CCCCCNC(=O)CN1CCN(CC(=O)O)CCN(CC(=O)O)CCN(CC(=O)O)CC1)C(C)C)C(=O)N[C@@H](CCC(=O)O)C(=O)N1CCC[C@H]1C(=O)N[C@@H](CC(=O)O)C(=O)N[C@H](C(=O)N[C@@H](CO)C(=O)N[C@@H](CCC(N)=O)C(=O)N[C@H](C(=O)N[C@@H](CCC(N)=O)C(=O)N[C@@H](CC(=O)O)C(=O)N1CCC[C@H]1C(=O)N[C@@H](CC(N)=O)C(=O)N[C@@H](CC(=O)O)C(=O)N[C@@H](CCC(N)=O)C(=O)N[C@@H](Cc1ccc(O)cc1)C(=O)N[C@@H](CCC(=O)O)C(=O)N1CCC[C@H]1C(=O)N[C@@H](Cc1ccccc1)C(=O)O)C(C)C)C(C)C [copper-64 labelled],,,"GZMB-/- mice, CT26 tumour-bearing, heart","2 h, vehicle-treated",,tissue uptake,0.97 ± 0.1 %ID/g

# Repeated from above:
SMILES,target or system,test,system,conditions,scale,quantity,value
CC(=O)NCCCC[C@@H]1NC(=O)[C@H](Cc2c[nH]c3c(C)cccc23)NC(=O)[C@H]([C@@H](C)O)NC(=O)[C@H](CC(N)=O)NC(=O)[C@@H](NC(C)=O)C(C)(C)SSC(C)(C)[C@@H](C(=O)N[C@@H](Cc2ccc(OCCN)cc2)C(=O)N[C@@H](Cc2ccc3ccccc3c2)C(=O)NC2(C(=O)N[C@@H](CCC(=O)O)C(=O)N[C@@H](CC(N)=O)C(=O)N[C@@H](Cc3cccnc3)C(=O)N(C)CC(N)=O)CCOCC2)NC1=O,"SLCO1B1 (Homo sapiens, UniProt Q9Y6L6)",substrate,HEK293 expressing SLCO1B1,"5 µM, 30 min",,uptake rate,0.095 ± 0.0041 pmol/mg/min
Cc1cc(OCC(=O)NCCNC(=O)c2cccc(COc3ccccc3C(N)=O)c2)c2c3c(c(=O)oc2c1)CCC3,"PARP2 (Homo sapiens, UniProt Q9UGN5)","enzyme activity, inhibitor",,0.5 µM,,inhibition,99%
